Experimental data pooled from the literature.
Compare with care: the assays were run in different laboratories. Several values in a cell are separate wells, animals, samples, runs or records. ± gives the spread as reported.
CDK9: Cyclin-dependent kinase 9 (CDK9, Homo sapiens, UniProt P50750)
Sequence of UniProt P27361 (whole entry, looked up): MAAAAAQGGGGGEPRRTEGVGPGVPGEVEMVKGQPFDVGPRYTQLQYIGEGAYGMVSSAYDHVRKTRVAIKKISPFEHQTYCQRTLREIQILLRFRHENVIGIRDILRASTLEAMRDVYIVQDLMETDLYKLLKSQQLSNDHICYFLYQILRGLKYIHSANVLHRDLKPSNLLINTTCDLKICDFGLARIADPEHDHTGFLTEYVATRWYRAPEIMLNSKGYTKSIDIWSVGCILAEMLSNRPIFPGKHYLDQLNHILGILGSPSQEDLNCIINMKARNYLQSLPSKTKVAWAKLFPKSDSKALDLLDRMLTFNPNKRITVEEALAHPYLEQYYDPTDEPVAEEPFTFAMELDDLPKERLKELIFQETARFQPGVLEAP
Sequence of UniProt P23458 (whole entry, looked up): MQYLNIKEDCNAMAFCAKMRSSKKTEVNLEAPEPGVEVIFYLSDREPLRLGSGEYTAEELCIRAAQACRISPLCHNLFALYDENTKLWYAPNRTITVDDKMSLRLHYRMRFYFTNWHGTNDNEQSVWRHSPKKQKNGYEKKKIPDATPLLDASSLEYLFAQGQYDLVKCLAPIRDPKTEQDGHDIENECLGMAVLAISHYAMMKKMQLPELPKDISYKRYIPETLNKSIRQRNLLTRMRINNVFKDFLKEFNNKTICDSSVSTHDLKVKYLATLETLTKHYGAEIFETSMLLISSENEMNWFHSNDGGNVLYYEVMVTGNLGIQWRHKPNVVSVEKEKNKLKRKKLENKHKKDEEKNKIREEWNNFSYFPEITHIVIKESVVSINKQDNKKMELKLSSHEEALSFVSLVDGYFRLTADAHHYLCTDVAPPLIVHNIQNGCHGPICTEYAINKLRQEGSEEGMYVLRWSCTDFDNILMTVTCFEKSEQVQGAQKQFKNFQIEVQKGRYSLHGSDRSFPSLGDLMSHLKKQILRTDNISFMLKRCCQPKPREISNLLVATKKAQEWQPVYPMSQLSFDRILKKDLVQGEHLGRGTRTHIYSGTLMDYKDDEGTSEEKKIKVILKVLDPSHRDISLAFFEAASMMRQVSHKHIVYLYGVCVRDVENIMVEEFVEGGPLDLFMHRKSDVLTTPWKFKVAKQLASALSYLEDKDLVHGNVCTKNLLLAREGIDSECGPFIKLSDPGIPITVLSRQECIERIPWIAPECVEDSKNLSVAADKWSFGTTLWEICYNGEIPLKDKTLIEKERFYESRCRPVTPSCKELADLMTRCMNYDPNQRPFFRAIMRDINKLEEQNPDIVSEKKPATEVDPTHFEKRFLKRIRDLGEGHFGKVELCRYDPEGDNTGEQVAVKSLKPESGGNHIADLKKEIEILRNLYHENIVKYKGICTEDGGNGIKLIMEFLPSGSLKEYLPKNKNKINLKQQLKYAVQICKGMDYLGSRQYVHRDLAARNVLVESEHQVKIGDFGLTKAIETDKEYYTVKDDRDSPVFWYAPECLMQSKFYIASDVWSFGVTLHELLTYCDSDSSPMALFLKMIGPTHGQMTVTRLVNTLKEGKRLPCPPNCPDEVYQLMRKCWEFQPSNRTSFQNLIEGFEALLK
Sequence of UniProt Q007T0 (whole entry, looked up): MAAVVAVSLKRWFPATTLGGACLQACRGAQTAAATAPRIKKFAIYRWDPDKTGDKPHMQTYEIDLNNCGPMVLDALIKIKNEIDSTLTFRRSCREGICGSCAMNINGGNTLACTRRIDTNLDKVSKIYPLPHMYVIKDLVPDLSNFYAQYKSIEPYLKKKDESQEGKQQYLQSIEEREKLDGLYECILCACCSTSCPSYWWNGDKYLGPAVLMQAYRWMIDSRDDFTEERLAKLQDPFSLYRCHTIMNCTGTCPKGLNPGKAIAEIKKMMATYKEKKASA
Sequence of UniProt D0VWV4 (whole entry, looked up): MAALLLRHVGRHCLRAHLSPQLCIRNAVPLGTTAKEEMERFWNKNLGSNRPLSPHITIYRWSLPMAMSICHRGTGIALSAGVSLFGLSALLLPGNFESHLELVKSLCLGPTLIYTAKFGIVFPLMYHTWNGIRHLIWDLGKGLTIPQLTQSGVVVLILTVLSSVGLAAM
Sequence of UniProt A5GZW8 (whole entry, looked up): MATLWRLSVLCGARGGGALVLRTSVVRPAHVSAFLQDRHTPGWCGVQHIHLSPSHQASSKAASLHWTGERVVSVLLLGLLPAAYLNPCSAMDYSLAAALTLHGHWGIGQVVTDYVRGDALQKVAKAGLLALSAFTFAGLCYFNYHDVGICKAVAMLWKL
Sequence of UniProt P50750 (whole entry, looked up): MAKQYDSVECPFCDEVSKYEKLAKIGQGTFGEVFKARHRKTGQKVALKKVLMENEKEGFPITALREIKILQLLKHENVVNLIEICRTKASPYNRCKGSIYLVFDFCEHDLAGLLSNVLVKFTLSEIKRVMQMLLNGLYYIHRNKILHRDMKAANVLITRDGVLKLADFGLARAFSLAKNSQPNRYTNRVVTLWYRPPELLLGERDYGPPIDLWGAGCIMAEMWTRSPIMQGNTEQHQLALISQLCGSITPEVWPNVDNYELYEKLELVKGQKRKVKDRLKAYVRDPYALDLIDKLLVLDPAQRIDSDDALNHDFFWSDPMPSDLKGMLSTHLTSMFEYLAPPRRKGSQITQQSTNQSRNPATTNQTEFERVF
Sequence of UniProt P49888 (whole entry, looked up): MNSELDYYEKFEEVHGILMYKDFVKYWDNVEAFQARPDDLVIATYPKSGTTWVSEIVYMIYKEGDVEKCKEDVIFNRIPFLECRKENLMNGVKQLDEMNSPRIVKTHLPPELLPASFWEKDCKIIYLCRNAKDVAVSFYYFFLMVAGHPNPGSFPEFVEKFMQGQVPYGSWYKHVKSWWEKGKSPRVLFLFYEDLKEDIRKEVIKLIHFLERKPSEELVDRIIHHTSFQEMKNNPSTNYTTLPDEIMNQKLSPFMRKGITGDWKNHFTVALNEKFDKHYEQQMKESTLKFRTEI
Sequence of UniProt P39748 (whole entry, looked up): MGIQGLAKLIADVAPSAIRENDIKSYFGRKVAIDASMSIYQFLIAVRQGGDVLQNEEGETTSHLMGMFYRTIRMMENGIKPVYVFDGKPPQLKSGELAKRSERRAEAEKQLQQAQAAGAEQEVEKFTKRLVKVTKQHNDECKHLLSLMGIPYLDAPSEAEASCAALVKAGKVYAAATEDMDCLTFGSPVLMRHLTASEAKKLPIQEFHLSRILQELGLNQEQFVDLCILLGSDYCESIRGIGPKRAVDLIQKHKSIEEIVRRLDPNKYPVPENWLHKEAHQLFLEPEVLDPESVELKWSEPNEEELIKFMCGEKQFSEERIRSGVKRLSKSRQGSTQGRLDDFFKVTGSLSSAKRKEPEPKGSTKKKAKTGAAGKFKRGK
Sequence of UniProt P38606 (whole entry, looked up): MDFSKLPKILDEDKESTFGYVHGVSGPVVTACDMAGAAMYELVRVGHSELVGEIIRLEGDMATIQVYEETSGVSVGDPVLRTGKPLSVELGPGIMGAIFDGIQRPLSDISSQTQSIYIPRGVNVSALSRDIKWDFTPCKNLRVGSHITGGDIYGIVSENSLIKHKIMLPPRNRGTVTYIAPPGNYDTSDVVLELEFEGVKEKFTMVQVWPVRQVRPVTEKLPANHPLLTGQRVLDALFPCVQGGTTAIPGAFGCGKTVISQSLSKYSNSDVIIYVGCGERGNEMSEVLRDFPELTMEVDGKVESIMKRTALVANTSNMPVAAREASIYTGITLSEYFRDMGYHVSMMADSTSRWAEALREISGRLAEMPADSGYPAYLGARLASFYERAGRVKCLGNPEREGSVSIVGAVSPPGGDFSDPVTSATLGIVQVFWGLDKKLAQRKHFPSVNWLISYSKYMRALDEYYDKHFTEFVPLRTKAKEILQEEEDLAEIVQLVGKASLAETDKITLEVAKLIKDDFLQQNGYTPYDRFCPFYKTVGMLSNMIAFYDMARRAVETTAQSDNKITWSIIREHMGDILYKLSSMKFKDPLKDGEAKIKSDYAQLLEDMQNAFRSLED
Sequence of UniProt Q9JLB5 (whole entry, looked up): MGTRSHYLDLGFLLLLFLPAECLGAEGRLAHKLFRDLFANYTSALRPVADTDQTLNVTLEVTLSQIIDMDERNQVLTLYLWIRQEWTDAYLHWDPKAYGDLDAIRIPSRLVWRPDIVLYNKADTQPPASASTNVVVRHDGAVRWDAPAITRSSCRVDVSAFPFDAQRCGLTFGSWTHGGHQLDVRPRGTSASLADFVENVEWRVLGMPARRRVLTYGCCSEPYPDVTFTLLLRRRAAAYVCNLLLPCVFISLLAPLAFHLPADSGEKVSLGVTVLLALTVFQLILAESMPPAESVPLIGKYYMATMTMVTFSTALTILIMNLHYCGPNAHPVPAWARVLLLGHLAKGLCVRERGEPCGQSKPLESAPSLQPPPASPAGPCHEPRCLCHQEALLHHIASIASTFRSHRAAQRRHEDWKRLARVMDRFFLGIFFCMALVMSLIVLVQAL
Sequence of UniProt Q9H3N8 (whole entry, looked up): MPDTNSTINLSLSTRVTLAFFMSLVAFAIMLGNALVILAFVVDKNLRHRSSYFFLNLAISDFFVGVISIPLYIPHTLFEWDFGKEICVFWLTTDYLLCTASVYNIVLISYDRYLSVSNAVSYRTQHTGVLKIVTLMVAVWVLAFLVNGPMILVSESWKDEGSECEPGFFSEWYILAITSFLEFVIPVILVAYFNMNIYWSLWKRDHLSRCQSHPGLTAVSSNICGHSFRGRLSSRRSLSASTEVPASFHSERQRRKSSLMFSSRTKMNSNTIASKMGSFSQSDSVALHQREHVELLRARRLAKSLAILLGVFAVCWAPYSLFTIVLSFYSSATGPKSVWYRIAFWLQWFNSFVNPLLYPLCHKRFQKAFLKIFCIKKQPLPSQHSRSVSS
Sequence of UniProt P07148 (whole entry, looked up): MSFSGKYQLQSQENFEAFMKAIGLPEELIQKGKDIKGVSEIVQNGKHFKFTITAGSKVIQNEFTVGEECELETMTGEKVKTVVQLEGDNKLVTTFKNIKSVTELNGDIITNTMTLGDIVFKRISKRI

`COc1ccccc1N1CCN(c2c(C#N)nnc3c(OC)cc(F)cc23)CC1` — result for activity: “inactive” (GRM8 (Homo sapiens, UniProt O00222); positive allosteric modulator; concentration not given, added: glutamate).
With `O=C(O)COP(=O)(O)O` the Ki ratio was 1390 (Triosephosphate isomerase (TPI1, Gallus gallus, UniProt P00940, G210A/S211G/Y208T); enzyme activity, competitive inhibitor, GPDH/NADH-coupled; pH 4.9, 25 °C, ionic strength 0.1 NaCl, added: glyceraldehyde 3-phosphate substrate; baseline: mutant over wild type).
`CN1CCN(c2cc(-c3ccncc3)c(-c3ccc4ccccc4c3)nn2)CC1` has an activation of 7.4% (MC2R (Homo sapiens, UniProt Q01718); agonist, FLIPR; 12.5 µM).
With `NCCc1c[nH]c2ccc(O)cc12` the Km was 240 ± 50 µM (AANAT2 pig; substrate, DTNB colorimetric; added: acetyl-CoA).
For `[OH][Sb]([OH])[OH]`, the Km was 2.2 µM (ArsV Ensifer adhaerens; enzyme activity, substrate, HPLC-HG-AFS; added: NADPH and FAD).
With `COc1ccc(N2C(=O)N(c3c(C)cccc3Cl)Cc3cnc(Nc4ccc(C5CCN(C)CC5)cc4OC)nc32)nc1` the inhibition was 94% (FGR (Homo sapiens, UniProt P09769); kinase activity; 0.5 µM).
For `COC(=O)[C@@]1(O)C[C@H]2O[C@]1(C)n1c3ccccc3c3c4c(c5c6ccccc6n2c5c31)C(=O)NC4`, the kinase activity was 76.1% and 78.8% and 55.7% (MAPK3 (Homo sapiens, UniProt P27361); ADP-Glo; 29 nM, added: MBP substrate).
`C[n+]1cn([C@@H]2O[C@H](COP(=O)([O-])OP(=O)(O)OP(=O)(O)OC[C@H]3O[C@@H](n4cnc5c(=O)[nH]c(N)nc54)[C@H](O)[C@@H]3O)[C@@H](O)[C@H]2O)c2nc(N)[nH]c(=O)c21` — result for “stoichiometry second site”: 1.07 (m7GpppX diphosphatase (DCS1, Saccharomyces cerevisiae, UniProt Q06151, H268N/K126A); binding, ITC).
`CC[C@H](CO)Nc1nc(NCc2ccc(-c3ccccn3)cc2)c2ncn(C(C)C)c2n1` has a binding score of 3.2 (CDK9; KINOMEscan competition binding; 10 µM, primary screen; direction not given).
The Emax of `CCCCCCCCCC(=O)CC(=O)Nc1ccccc1` is reported as 93% (Regulatory protein SdiA (sdiA, Escherichia coli, UniProt P07026)).
`O=C(NNC(=O)c1csnn1)c1ccc(Cl)cc1` gave a remaining activity of 97.5% (Acetyl-CoA synthetase (Cryptococcus neoformans, UniProt J9VFT1); 97.7 nM).
For `N#Cc1ccc(COc2cccc(C(=O)Nc3ccc4c(c3)B(O)OC4)c2)cc1`, the inhibition was ≤ 10% (Genome polyprotein, NS2B-NS3 protease (West Nile virus, UniProt P06935); enzyme activity, FRET; 50 µM, added: substrate 50 µM).
Under “catalytic efficiency decrease”, `CC=O` is recorded as 10 fold (ADH1 (Saccharomyces cerevisiae, UniProt P00330, H49Q); enzyme activity, substrate; pH 7.3; baseline: wild type).
`CCOC(=O)COc1ccc2c(=O)c3ccccc3oc2c1` has a reaction velocity of 0.0011 a.u. (ache (Electrophorus electricus, UniProt O42275); enzyme activity; 0.42 µM, added: substrate 0.86 mM; higher = faster reaction).
`O=C(c1ccc(Cl)cc1)N1CCN2C(=O)N(OC(=O)N3CCOc4ccccc43)C(=O)C2C1` (stereo not drawn): “median protein ratio” 1.12 (GSTO1 (Homo sapiens, UniProt P78417); MS-based ABPP; SW-620 conditioned medium; 10 µM; baseline: compound over DMSO, lower = more inhibition).
The Km of `O=C1C(=O)c2ccccc2-c2ccccc21` is reported as 0.42 µM (9,11-endoperoxide prostaglandin H2 reductase (Trypanosoma brucei brucei, UniProt Q9GV41); substrate; Trypanosoma brucei).
`COc1cc(N)c(Cl)cc1C(=O)NC1CN2CCC1CC2` (stereo not drawn): “log2 fold change” 0.421 (G-protein coupled receptor family C group 5 member D (GPRC5D, Homo sapiens, UniProt Q9NZD1); β-arrestin recruitment, TANGO luminescence, refers to: GPRC5D; concentration not given; baseline: basal luminescence).
For `O=C(Nc1cnccc1Cl)N1CCN(Cc2ccc3c(c2)OC(F)(F)O3)CC1`, “inhibition of binding” read 5% (HRH4 (Homo sapiens, UniProt Q9H3N8); radioligand binding; 10 µM, added: [3H]histamine).
With `[2H]c1c([2H])c([C@]2([2H])CCCN2C(=O)C(C)(C)Oc2ccc3cn[nH]c3c2)c([2H])c([2H])c1C([2H])([2H])[2H]` the remaining binding was 84% (Tyrosine-protein kinase JAK1, JH1 kinase domain (JAK1, Homo sapiens, UniProt P23458); KINOMEscan; 1 µM; baseline: DMSO control).
`CN(C(=O)n1cnc(-c2ccc[n+]([O-])c2)c1)C1CCCCC1` gave an inhibition of 4% (dopamine D4.2 receptor, human; binding; 50 µM, added: [3H]spiperone).
For `CCOC(=O)CC(SP(=O)(OC)OC)C(=O)OCC` (stereo not drawn), the remaining activity was 5% (uncharacterized protein (Anopheles coluzzii, UniProt A0A6E8VQK1); enzyme activity, inhibitor; Sf9 cell homogenate; 3.44 µM, 0.1667 h, added: α-naphthyl acetate substrate; baseline: no inhibitor).
For `Cc1cn([C@H]2[C@H]([C@H](O)[C@H](O)CO)OC(C(=O)O)=C[C@@H]2O)nn1`, “potency relative to DANA” read 14 fold (Sialidase-1 (NEU1, Homo sapiens, UniProt Q99519); enzyme activity, inhibitor; baseline: DANA).
For `O=C(Nc1cccnn1)N1CCC(=Cc2cccc(Oc3ccc(C(F)(F)F)cn3)c2)CC1`, the inhibition was 15% (RXRA (Homo sapiens, UniProt P19793); radioligand binding, inhibitor; 50 µM, human, added: [3H]9-cis-retinoic acid).
The remaining binding of `C[C@H]1CN(c2n[nH]c3nc(N[C@H]4CC[C@H](NS(=O)(=O)CCC(F)(F)F)CC4)ncc23)CCO1` is reported as 0.98 (CDK9; Kinobeads competition; HEK293, K562, placenta lysate; 0.16 µM, unit not given; baseline: vehicle).
`CCN(CC)CCCC[C@H](NC(=O)[C@H](CC(C)C)NC(=O)[C@H](C)NC(=O)[C@H](Cc1ccccc1)NC(=O)c1ccc(C(C)(C)C)cc1)C(=O)N[C@@H](CO)C(=O)OC` has a specific binding of 120% (NPY1R (Homo sapiens, UniProt P25929); radioligand binding; 10 µM).
`C=C(CN(C(=O)c1c(C(F)F)nn(C)c1F)C1CC1)c1ccc(Cl)cc1Cl` gave a reaction velocity of 0.00153 µM/s and 0.00175 µM/s (SDHD/SDHC/SDHB (Sus scrofa, UniProt A5GZW8+D0VWV4+Q007T0); enzyme activity, inhibitor, DCIP reduction; pig; 0.2 µM, added: DCIP 5 µM).
For `CC[C@@H](C)[C@@H](NC(=O)[C@@H](Cc1ccc(O)cc1)NC(=O)[C@H]1CCCN1C(=O)[C@@H](CCCNC(=N)N)NC(=O)[C@H](N)Cc1c[nH]cn1)C(=O)N[C@H](C)C(=O)N[C@H](Cc1c[nH]cn1)C(=O)N[C@H](CCCNC(=N)N)C(=O)N[C@H](CCCCNC(=O)c1cccc(S(=O)(=O)F)c1)C(=O)N[C@H](Cc1ccc(O)cc1)C(=O)N[C@H](CO)C(=O)N[C@H](Cc1ccccc1)C(N)=O`, “surface TFRC expression” read 0.897 (Transferrin receptor protein 1 (Tfrc, Mus musculus, UniProt Q62351); flow cytometry; DC2.4; 2 h, pH 6, replicate 1, unit not given; baseline: 0 h).
For `NCCc1c[nH]c2ccc(O)cc12`, the Emax was 100 ± 7% (serotonin receptor-like protein (Schistosoma mansoni, UniProt A0A173FEI8); cAMP level, agonist, GloSensor luminescence; baseline: 5-HT maximal response).
`Nc1ccc(C(=O)Nc2ccc3c(c2)B(O)OC3)cc1` has an inhibition of 20 ± 5% (Genome polyprotein, NS2B-NS3 protease (dengue virus type 2, UniProt P29990); enzyme activity, FRET; dengue virus serotype 2; 50 µM, added: substrate 50 µM).
`CN1CCc2[nH]c3ccccc3c2CC1.O=C(O)/C=C/C(=O)O`: “recovery time constant” 9.4 ± 0.7 s (Nicotinic acetylcholine receptor alpha9/alpha10 (Rattus norvegicus, UniProt P43144+Q9JLB5); ion current, inhibitor, two-electrode voltage clamp; Xenopus laevis oocytes; 3 µM, rat receptor, added: acetylcholine 10 µM).
For `COc1cc(Nc2ncc(F)c(Nc3ccc4c(n3)NC(=O)C(C)(C)O4)n2)cc(OC)c1OC`, the inhibition was 80% (HIPK4 (Homo sapiens, UniProt Q8NE63); KINOMEscan; 10 µM).
Under “binding fold change”, `O=S(=O)(O)C(F)(F)C(F)(F)C(F)(F)C(F)(F)C(F)(F)C(F)(F)C(F)(F)C(F)(F)F` is recorded as 53.1 (FABP1 (Homo sapiens, UniProt P07148); affinity selection mass spectrometry; 100 nM, added: pooled compounds; baseline: other proteins).
`COc1ncccc1-c1cnn2ccc(N3CCN(C(=O)OC(C)C)CC3)nc12` has a remaining binding of 48% (Tyrosine-protein kinase JAK1, JH2 pseudokinase domain (JAK1, Homo sapiens, UniProt P23458); KINOMEscan binding; 1 µM; baseline: untreated control).
For `O=C(O)c1cc[c]([Sb](=[O])([OH])[OH])cc1[N+](=O)[O-]`, the substrate conversion was 7% (Flap endonuclease 1 (Homo sapiens, UniProt P39748); gel radiotracer; 100 nM, 5 min, room temperature, added: single-flap substrate 50 nM).
`C#CCCCCNC(=O)CI` gave a reactivity ratio of 0.924 (ATP6V1A (Homo sapiens, UniProt P38606); mass spectrometry profiling; H460 cell lysate; 100 µM over 10 µM, UniProt P38606; baseline: high over low concentration).
`Oc1c(Br)cc(Br)cc1Oc1ccc(Br)cc1Br` gave an apparent Vmax of 13.9 nmol/min/mg protein (SULT1E1 (Homo sapiens, UniProt P49888); sulfonation, substrate).
